# Measurements collected from several papers.
# Every numbered part comes from another study and shows a few of its results, in no order.

# Set 1 — technique: protein-binding microarray; form: double-stranded DNA, one strand shown; matrix: in vitro; concentration: 0.8 µM; setting: whole 60-bp probe, no competitor; direction: higher = stronger binding; shared flanks, not repeated: … GTCTTGATTCGCTTGACGCTGCTG
# Target: Centromere-binding protein 1, full length, N-terminal tag (CBF1, Saccharomyces cerevisiae, UniProt P17106, residues 1-351)
# Sequence of UniProt P17106 (whole entry, looked up): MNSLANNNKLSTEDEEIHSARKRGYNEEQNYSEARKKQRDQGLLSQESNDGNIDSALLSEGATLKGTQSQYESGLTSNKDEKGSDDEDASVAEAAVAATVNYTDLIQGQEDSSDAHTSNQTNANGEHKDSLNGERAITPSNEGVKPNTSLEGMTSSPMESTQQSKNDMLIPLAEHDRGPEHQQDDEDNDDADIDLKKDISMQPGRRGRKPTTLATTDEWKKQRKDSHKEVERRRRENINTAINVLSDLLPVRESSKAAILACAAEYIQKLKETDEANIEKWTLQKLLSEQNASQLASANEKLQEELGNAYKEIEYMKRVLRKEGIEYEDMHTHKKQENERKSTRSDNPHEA
Oligonucleotide,fluorescence intensity [a.u.]
GAAGGCACACGAAGCGGCCACGTGGGTCTGCGATAG,3720
CTAAAATGGCATAATCACGTAGCAACCTGGAAATTC,605
CCTAACTACTATAGTGGTCGGAAATAGCTTCGTACA,486
GAAGATGCCCACACGCACGTTTGGATTATTACCTAG,545
CTACAAGCGACCGTACATGTGGCATTTTCCACTTTC,595
CTACTGTGATTGGCGCACGGGTGTGGAGGTGTCTTC,581
TGTACGAAGCTATACGTGGTTTTTATAGTAGTTAGG,543

# Set 2 — technique: protein-binding microarray; form: double-stranded DNA, one strand shown; matrix: in vitro; concentration: 940 nM top; setting: 60-bp whole probe; added: salmon DNA 0.4 mg/ml; baseline: random background probes; direction: higher = stronger binding
# Target: Interferon regulatory factor 5, full length, phosphomimetic (IRF5, Homo sapiens, UniProt Q13568-2, residues 1-514, S451D/S453D/S456D/S462D)
Oligonucleotide,fitted relative affinity
GCCTAGCACACAGCCTTTCTAACTTGAAAGTGCTAGGTCTTGATTCGCTTGACGCTGCTG,-0.0428 z-score
GCCTAGCACTTAGATTTCGGGACTGGACTAGTGCTAGTCTTGATTCGCTTGACGCTGCTG,0.353 z-score
GCCTAGCACGACGAGATCGGGTATCGAGACGTGCTAGTCTTGATTCGCTTGACGCTGCTG,1.35 z-score
GCCTAGCACGGCGGTCTCGGTATCGGGACGTGCTAGGTCTTGATTCGCTTGACGCTGCTG,5.59 z-score

# Set 3 — technique: protein binding microarray; form: double-stranded DNA, one strand shown; matrix: in vitro; concentration: not given; baseline: not given; direction: higher = stronger binding
# Target: Histone acetyltransferase KAT6A, winged helix 1, GST fusion (KAT6A, Homo sapiens, UniProt Q92794, residues 1-85)
# Setting: 8-mer, flanks averaged, mean of 2 arrays, mostly near background
# Residues (chain): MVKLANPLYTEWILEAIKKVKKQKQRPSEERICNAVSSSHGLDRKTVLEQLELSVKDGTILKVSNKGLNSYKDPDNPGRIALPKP
Oligonucleotide,E-score
ACCGCGGA,0.338
GTGGTGGA,-0.13
CGCGTTCC,0.365
AGGTGCGG,0.213
CCCATAAG,-0.113
ATACTCTG,0.0366

# Further values, each from its own experiment
Substance,target,test,test system,setting,how to read,quantity,value
"PhoQ, residues 284 288 289 292 302 303 TNASYF","PhoP, residues 12 14 15 18 19 TPLRH (Escherichia coli, UniProt P23836)","Sort-seq, refers to: YFP reporter",E. coli,"PhoQ-PhoP variant library, added: 10 µM Mg2+","baseline: high Mg2+ state, higher = stronger signaling",fold induction,1.26

# Some of these lines once more (set 3):
Oligonucleotide,E-score
CGCGTTCC,0.365
ATACTCTG,0.0366
